Published values of several laboratories.
Numbered parts are unrelated; each lists some results of a single study. Substitutions count along the parent as printed.
Chain of UniProt Q9Y2X8 (whole entry, looked up): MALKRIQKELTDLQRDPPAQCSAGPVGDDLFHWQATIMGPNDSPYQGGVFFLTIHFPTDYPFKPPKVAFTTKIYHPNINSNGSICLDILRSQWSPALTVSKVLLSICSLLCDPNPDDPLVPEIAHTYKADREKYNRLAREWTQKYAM

Series 1
Target: Hepatocyte nuclear factor 3-alpha (Foxa1, Mus musculus, UniProt P35582, residues 1-468, full length assumed)
Technique: EMSA with sequencing
Molecule type: double-stranded DNA, one strand shown
Sample: in vitro
Tested at: 10 and 20 nM
Notes: whole designed probe, mean of two concentrations, ends assumed
Reference: negative control set to 0
Direction: higher = stronger binding
Target sequence (chain): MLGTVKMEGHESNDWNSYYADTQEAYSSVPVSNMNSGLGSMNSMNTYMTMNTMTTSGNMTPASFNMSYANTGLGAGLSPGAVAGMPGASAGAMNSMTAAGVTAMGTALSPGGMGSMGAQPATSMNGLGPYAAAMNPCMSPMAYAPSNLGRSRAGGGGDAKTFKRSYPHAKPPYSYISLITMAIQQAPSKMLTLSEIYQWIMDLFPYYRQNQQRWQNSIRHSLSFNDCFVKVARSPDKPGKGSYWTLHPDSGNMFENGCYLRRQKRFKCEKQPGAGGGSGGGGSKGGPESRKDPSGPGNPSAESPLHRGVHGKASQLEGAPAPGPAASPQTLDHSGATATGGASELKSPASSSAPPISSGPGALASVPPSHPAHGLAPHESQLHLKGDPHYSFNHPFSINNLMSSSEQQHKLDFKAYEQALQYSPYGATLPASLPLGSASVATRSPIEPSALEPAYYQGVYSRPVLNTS
Under “normalised bound fraction”, `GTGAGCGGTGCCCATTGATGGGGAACATGTGGGAACTAATTGAGGACCATGTTTACAATGCGTACAAATCATAAATCAATTAGTTCATACAAGGAAGAAATTGATTTACAAAAAGTATTTGTTTACATTGATACTGTCCATGTAAACTTTTTTCAATTCAAAAGAAACACATAGTTCTGTCATAAAGTAGATTTTCTATCCCTTTTATTTTCTGAGCTTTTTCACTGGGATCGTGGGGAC` is recorded as 0.409 ratio.
`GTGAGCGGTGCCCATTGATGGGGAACATCTTCCCCCTCTTCCTTGCCCCACCAGCTCACCTTCCCGGGTTATTTGCACAAAGGAAAATAAATAAAGCCGGCATTCGTTAACCCTCTTCTGGCGCAAACTGCTGTTTGCTCTGCATCTAACATGGTCCTTACGCGACGCCAGGCTCCGGGAGAGCAAAGCACCGTGTCAGGCGCATGATCCGGGGTGGCCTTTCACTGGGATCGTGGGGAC`: “normalised bound fraction” 0.375 ratio.
For `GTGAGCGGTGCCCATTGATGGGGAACCTTTTTGGGGTGATGAAAATAATCTAAAATTGACTGTGGTGATTTCAGAGCTCTCAGTATGCTAAAAACCATGGACTTATCCCCTTAGAAAAAGTAATCTAAGAGTTATGAAAAAGAAAAAAAAAGACGTTTTAATTTCTATCACTGAGTGTGCACATGTTTTTAAAAAGTTTTTATTACTATAAACCAACCATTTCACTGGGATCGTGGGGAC`, “normalised bound fraction” read -0.0155 ratio.
`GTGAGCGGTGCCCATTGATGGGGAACTCCACAGTAGAAACGAAGGAGATGACAGATACCCCGGCACCAAAACTGACACCAGGTTTTTGTTGCTTCTTCCACTATATAATGGAGAAGTTCTGTTTACTCTATACTGTTGTGCAACGTTAACATTGGCTTAAGGAAACCCAAGAAACTGAATCACATCAAAGGTATGTCAGAGGTATGTGAACCAGAGCAATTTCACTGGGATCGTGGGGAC`: “normalised bound fraction” 0.291 ratio.
`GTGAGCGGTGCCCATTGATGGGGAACCTTTTTGGGGTGATGAAAATAATCTAAAATTGACTGTGGTGATTTCAGAGCTCTCAGTATGCTAAAAACCATGGACTTATCCCCTTAGAAAAAGTAAACAAAGAGTTATGAAAAAGAAAAAAAAAGACGTTTTAATTTCTATCACTGAGTGTGCACATGTTTTTAAAAAGTTTTTATTACTATAAACCAACCATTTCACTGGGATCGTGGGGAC`: “normalised bound fraction” 0.411 ratio.
`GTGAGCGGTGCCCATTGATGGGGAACACCAAGTTTCTGTAAAGATGGAAGAACAAGGTAACAGAAAGGAGAAATAACATGCCATGTTCCAAAGGGAAGTATTGTGGGCCCCTAAAGTACAAATTACTTTTCTACAGTGTGTCACTGCAAATATATATACACAAGTCAAGTTATGTGAGTCATCTACAGATTTAAGTTCCTAAGTTGGAGGGGAGAGCCCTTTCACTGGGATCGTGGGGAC`: “normalised bound fraction” 0.0245 ratio.
`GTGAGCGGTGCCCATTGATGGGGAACATCTTCCCCCTCTTCCTTGCCCCACCAGCTCACCTTCCCGGGTTGTTTACTTTGAGCAAAGTAAACAAAGCCGGCATTCGTTAACCCTCTTCACGCGCATACTGCTGTTTACTTTGGATGAATCATGGTCCTTTGGCGACGCCAGGCTCCGGGAGAGCAAAGCACCGTGTCAGGGCCATGATCCGGGGTGGCCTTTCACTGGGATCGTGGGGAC`: “normalised bound fraction” 0.54 ratio.
`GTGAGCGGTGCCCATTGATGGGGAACAGCATTATCAGCAGGGGCCAGGCTACTTGGCCCACATCAGATTACCTATGTCCCAGGCCAGCCTGCACTCATTAGATCAGTGCAGCCATAATTAGATTGCACAGGAGGTGGCAGAGTGTGTACTTGTGTACTTGACCTCAGACATCAAATACTTAAGTTTTGAAAGTACTGAACTGTGATGTCAGCTTGGTTTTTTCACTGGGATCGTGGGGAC`: “normalised bound fraction” 0.00892 ratio.

Series 2
Target: Centromere-binding protein 1, full length, His-tagged (CBF1, Saccharomyces cerevisiae, UniProt P17106, residues 1-351)
Chain of UniProt P17106 (whole entry, looked up): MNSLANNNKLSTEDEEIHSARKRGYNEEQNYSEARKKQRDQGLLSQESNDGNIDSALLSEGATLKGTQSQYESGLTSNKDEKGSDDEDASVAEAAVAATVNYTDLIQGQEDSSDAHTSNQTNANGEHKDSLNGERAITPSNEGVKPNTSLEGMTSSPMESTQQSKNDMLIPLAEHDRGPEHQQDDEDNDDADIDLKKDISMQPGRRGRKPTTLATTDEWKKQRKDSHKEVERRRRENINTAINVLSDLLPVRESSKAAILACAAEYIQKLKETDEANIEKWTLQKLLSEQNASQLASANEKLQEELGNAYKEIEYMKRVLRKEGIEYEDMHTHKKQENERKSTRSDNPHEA
Technique: competition protein-binding microarray
Molecule type: double-stranded DNA, one strand shown
Sample: in vitro
Tested at: 2 µM
Notes: whole 60-bp probe, lowest competitor level
With: Pho4 competitor, 0.05 µM
Direction: higher = stronger binding
The fluorescence intensity of `CAGCGGCATTTCGCTCGCGTGCCAGATCTCACAATCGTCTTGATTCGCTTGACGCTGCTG` is reported as 81.9 a.u.
`ATCATTTTCAATGAAGCTGTGACGGTGGCATTCGCAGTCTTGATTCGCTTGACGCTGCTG` gave a fluorescence intensity of 80.1 a.u.
`TTCTTTGCCCTCTTGCTCGTGTGGATTCCTTTCCGCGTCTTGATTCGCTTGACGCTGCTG` has a fluorescence intensity of 71.3 a.u.
For `TCCAGAACTTTTAAGCGCGTGTTCCAGGCGTTGCCGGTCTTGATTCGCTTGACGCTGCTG`, the fluorescence intensity was 69.7 a.u.
`ACATATATTAAGTTCCACGTGATGGAGGGAATAGTCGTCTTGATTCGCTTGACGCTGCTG` gave a fluorescence intensity of 3420 a.u.
With `CATTCGTTGGTTTATTATGTGACGGTTTTTAGACTTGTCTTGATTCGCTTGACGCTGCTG` the fluorescence intensity was 92.9 a.u.
For `TCTTCTTTTGGTTGGCATGCGTGTAGGCTTCAAGGTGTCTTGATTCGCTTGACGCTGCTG`, the fluorescence intensity was 98.5 a.u.
For `CGCTGAGTACTTCCTCACCTGATCCAATCGATTGACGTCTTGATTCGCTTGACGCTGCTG`, the fluorescence intensity was 357 a.u.

Series 3
Substitution: S42K
Target: ABI1, truncated, D143A, DHFR fusion (Arabidopsis thaliana)
Technique: DHFR PCA, deep sequencing
Sample: yeast
Notes: methotrexate growth selection, single substitutions
Reference: wild-type fitted maximum
Direction: higher = stronger binding
Parent: PYL1, truncated, DHFR fusion (Arabidopsis thaliana); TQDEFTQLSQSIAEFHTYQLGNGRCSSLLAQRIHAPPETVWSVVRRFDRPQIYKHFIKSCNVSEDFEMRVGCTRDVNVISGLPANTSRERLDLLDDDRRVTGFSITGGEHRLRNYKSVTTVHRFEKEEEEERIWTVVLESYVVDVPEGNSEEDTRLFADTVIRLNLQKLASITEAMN
For with: (+)-ABA 0 µM: “relative binding score” read 20.3%.
The “relative binding score” was 111% (with: (+)-ABA 710 µM).
It gave 11.1% for “relative binding score” (with: (+)-ABA 0.0091 µM).
with: (+)-ABA 1.4 µM — “relative binding score”: 56.8%.
For with: (+)-ABA 2500 µM: “relative binding score” read 108%.
The “relative binding score” was 81.5% (with: (+)-ABA 17 µM).

Other studies, line by line
`DDVLTKDAGECVICLEELLQGDTIARLPCLCIYHKSCIDSWFEVNRSCPEHPAD (ZNRF1 RING domain (UniProt Q8ND25))` — result for “lacZ reporter activity”: 13600 (UBE2D4 UBC core domain (UniProt Q9Y2X8); yeast two-hybrid; yeast; mostly zero background; reference: not given, higher = stronger interaction).

Repeated from above (series 1):
`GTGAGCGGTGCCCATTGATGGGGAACACCAAGTTTCTGTAAAGATGGAAGAACAAGGTAACAGAAAGGAGAAATAACATGCCATGTTCCAAAGGGAAGTATTGTGGGCCCCTAAAGTACAAATTACTTTTCTACAGTGTGTCACTGCAAATATATATACACAAGTCAAGTTATGTGAGTCATCTACAGATTTAAGTTCCTAAGTTGGAGGGGAGAGCCCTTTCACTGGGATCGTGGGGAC`: “normalised bound fraction” 0.0245 ratio.
`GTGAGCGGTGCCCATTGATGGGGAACATCTTCCCCCTCTTCCTTGCCCCACCAGCTCACCTTCCCGGGTTGTTTACTTTGAGCAAAGTAAACAAAGCCGGCATTCGTTAACCCTCTTCACGCGCATACTGCTGTTTACTTTGGATGAATCATGGTCCTTTGGCGACGCCAGGCTCCGGGAGAGCAAAGCACCGTGTCAGGGCCATGATCCGGGGTGGCCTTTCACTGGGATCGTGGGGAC`: “normalised bound fraction” 0.54 ratio.
